Experimental data pooled from the literature.
Parts stem from different laboratories: compare values within a part only.
Chain of UniProt Q9C098 (whole entry, looked up): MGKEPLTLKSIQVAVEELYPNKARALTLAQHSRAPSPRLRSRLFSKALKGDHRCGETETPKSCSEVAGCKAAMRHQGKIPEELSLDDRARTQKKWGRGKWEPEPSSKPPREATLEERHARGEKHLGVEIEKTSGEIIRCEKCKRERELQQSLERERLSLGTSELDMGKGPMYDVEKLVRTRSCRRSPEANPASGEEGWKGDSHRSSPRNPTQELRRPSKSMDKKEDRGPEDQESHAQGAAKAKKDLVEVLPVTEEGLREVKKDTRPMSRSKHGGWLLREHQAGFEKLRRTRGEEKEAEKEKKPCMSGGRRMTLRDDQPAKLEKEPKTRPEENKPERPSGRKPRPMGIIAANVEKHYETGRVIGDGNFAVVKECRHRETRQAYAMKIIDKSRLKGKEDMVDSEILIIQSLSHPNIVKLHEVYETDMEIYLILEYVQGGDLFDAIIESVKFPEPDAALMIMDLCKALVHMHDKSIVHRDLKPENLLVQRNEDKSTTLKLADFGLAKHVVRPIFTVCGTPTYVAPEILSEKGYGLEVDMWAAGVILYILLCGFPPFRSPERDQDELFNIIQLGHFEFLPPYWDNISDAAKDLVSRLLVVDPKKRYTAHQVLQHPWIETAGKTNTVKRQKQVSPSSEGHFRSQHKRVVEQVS
Chain of UniProt P78362 (whole entry, looked up): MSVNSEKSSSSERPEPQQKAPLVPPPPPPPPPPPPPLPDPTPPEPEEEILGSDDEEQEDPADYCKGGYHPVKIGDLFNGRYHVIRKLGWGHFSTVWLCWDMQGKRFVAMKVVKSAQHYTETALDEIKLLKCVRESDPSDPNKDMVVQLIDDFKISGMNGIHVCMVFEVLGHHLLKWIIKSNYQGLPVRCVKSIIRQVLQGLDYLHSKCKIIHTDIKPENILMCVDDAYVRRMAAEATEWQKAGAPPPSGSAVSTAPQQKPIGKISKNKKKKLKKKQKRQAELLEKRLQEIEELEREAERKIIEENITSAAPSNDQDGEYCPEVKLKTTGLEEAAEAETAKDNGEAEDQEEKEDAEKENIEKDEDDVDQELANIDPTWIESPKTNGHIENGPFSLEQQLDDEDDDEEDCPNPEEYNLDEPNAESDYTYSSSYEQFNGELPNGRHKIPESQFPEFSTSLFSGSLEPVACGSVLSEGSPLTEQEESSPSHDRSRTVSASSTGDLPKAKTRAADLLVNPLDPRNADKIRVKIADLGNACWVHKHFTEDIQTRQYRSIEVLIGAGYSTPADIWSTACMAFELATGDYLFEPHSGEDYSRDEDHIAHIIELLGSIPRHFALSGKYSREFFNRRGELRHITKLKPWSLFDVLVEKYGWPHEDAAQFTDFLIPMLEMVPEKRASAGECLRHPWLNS
Chain of UniProt Q05655 (whole entry, looked up): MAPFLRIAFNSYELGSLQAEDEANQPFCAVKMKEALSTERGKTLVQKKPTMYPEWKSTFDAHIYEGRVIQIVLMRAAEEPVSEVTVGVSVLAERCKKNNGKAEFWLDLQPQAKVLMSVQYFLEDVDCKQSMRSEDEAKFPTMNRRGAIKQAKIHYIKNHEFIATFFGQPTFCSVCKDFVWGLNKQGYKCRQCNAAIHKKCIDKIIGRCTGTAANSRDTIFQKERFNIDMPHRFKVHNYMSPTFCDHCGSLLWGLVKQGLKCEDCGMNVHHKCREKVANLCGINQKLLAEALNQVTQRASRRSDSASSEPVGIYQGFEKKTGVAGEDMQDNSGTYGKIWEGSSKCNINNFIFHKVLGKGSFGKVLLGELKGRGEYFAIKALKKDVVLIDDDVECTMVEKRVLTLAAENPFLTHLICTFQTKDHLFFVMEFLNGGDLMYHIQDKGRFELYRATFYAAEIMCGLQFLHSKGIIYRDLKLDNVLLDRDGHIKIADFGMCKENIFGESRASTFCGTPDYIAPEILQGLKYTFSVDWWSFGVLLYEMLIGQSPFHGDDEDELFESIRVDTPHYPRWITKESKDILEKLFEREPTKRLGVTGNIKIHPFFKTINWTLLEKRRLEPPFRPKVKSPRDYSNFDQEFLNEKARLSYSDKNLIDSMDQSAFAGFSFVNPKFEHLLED
Chain of UniProt Q9H3Y6 (whole entry, looked up): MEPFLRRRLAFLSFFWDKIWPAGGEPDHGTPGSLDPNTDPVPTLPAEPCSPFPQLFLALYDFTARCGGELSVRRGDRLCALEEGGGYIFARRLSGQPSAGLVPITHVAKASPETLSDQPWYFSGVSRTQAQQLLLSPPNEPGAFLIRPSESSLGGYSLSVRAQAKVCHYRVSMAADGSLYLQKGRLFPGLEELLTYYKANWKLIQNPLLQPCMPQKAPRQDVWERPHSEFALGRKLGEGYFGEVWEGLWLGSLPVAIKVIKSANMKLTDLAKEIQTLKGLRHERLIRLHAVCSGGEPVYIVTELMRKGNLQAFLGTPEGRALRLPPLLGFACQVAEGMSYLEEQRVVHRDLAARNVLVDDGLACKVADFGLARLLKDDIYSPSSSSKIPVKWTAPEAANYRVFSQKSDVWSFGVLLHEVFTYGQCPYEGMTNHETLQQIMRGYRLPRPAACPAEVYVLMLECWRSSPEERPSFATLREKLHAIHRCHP
Chain of UniProt Q9NYY3 (whole entry, looked up): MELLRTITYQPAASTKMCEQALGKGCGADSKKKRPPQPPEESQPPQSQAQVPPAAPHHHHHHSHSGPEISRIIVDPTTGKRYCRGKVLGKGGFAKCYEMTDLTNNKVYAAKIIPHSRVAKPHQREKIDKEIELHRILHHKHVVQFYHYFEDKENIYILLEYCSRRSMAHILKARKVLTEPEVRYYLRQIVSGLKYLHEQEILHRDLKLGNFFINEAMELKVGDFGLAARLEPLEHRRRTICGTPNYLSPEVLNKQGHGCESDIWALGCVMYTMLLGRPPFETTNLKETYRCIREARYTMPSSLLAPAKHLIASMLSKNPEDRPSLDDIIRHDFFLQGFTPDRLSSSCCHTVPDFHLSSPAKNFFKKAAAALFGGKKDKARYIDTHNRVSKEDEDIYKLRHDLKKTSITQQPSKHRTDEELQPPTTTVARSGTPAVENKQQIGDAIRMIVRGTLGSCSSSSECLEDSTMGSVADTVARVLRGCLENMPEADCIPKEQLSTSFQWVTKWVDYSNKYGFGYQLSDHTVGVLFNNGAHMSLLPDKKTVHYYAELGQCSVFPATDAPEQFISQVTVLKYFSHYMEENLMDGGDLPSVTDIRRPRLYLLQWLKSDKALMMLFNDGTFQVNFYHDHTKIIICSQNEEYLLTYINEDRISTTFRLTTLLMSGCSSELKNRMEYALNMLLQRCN
Chain of UniProt Q13546 (whole entry, looked up): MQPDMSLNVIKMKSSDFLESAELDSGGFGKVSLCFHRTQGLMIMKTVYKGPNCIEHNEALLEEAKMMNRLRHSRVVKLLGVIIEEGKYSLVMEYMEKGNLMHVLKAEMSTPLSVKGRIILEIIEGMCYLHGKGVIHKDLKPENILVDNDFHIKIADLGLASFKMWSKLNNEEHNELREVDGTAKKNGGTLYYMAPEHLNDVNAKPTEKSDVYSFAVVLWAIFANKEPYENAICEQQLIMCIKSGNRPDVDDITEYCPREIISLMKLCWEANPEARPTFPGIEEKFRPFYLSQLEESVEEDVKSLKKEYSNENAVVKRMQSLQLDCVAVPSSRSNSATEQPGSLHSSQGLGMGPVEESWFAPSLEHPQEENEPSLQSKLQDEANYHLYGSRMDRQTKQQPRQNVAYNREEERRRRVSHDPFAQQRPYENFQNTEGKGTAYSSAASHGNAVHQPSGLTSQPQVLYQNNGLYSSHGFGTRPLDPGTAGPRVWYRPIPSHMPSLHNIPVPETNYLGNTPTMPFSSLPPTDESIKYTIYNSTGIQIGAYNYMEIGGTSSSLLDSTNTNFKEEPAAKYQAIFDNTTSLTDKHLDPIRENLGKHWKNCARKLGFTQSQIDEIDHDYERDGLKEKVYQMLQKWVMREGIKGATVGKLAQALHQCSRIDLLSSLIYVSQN
Chain of UniProt Q96BR1 (whole entry, looked up): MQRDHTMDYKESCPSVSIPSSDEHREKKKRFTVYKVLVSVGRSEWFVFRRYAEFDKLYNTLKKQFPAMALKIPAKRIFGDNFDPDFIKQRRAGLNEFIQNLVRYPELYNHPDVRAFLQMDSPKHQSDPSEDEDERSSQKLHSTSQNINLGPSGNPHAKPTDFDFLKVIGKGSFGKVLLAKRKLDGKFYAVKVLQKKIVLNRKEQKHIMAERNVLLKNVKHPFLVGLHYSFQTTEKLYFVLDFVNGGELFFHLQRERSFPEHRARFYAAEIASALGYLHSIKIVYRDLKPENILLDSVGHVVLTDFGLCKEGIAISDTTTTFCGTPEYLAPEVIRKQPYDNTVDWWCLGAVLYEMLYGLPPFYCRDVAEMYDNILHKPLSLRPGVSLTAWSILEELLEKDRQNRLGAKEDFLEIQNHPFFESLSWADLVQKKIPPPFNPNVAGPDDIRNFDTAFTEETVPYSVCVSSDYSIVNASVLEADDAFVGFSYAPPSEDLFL
Chain of UniProt P51813 (whole entry, looked up): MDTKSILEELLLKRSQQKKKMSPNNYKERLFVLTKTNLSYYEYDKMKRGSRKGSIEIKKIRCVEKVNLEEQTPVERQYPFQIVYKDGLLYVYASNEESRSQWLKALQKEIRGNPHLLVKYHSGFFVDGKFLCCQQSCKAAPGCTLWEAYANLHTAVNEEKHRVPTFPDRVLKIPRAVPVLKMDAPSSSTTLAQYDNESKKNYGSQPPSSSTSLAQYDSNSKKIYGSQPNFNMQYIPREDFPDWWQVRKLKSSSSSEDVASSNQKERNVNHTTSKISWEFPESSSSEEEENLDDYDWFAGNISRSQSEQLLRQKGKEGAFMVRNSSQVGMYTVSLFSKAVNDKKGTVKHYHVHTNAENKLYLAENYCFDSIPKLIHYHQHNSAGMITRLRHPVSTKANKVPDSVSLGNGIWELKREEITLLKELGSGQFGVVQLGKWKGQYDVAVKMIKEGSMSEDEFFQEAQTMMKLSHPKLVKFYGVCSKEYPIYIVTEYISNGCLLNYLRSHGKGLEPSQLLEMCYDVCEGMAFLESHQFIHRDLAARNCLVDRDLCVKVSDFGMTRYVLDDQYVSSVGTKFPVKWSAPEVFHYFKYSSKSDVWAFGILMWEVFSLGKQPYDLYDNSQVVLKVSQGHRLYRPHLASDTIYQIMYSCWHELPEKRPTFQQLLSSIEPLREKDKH

Set 1
Target: Fragile X messenger ribonucleoprotein 1, C-terminal low-complexity region (Fmr1, Mus musculus, UniProt P35922)
Technique: RNA Bind-n-Seq
Molecule type: RNA
Medium: in vitro
Concentration: 200 nM
Notes: whole 134-nt RNA, ends assumed
Together with: 150 mM KCl
Relative to: input library
Direction: higher = stronger binding
Shared flanks, not repeated: GGGAGUUCUACAGUCCGACGAUC … UGGAAUUCUCGGGUGUCAAGG
| Strand | log2 enrichment |
| --- | --- |
| GCUUUGCCUUCACUUAUUUCUUUGCUUUUUAAAAACUAUUUGUAAUGUAAUUUUAAUGCAUUUUUUACAGGCCCAGUAAUGGUUAAAUAC | -0.0177 |
| AAGUCCUGUGCUACACAUCGUAUGUACCGAAUCGGGGUGGGGAAAGGGGAAAGGGGAAAGUAUUAUGUUACGCCGUUCGGAUCUGCACUU | 0.823 |
| UGGCCCUGGUGGCAUGCGGGGAGGAAGAGGUGGCCUCAAGGAUCGUGGUGGUCCCGGUGGAAUGUUCAGAGGUGGCCGUGGUGGAGACAG | 0.187 |
| CACAGACAACACGCACCCACACAGACACAGAGGGAAGGGGUUGGGAUGGGGACAGGGUGCACAGCAGGGCGGGGUAGGAGCCCAGCCCCU | 1.2 |
| CAAGUCCUGUGCUACACAUCGUAUGUACCGAAUCGGCCCGGGGCCCGGGCCCGGGAAAGUAUUAUGUUACGCCGUUCGGAUCUGCACUUC | -0.505 |
| UCCUCAAGUCCUGUGCUACACAUCGUAUGUACCGAAUCGGCGGCGGCGGGGAAAGUAUUAUGUUACGCCGUUCGGAUCUGCACUUCCAGC | 0.00459 |
| UGGCCCUGGUGGCAUGCGGGGAGGAAGAGGUGGCCUCAUGGAUCGUGGUGGUCCCGGUGGAAGGUUCAGAGGUGGCCGUGGUGGAGACAG | 0.248 |
| AAGUCCUGUGCUACACAUCGUAUGUACCGAAUCGGGCCCCGGGGCCCCGGCCCCGGGAAAGUAUUAUGUUACGCCGUUCGGAUCUGCACU | -1.99 |

Set 2
Structure (SMILES): CN(C)C(=O)Cn1cc(-c2nc([C@@](C)(c3ccc(-c4cnc(N)nc4)cc3)C3CC3)no2)cn1
Observed: cell-free assay
Technique: competition with immobilised ligand
Concentration: 1 µM
| target | remaining binding [%] |
| --- | --- |
| Serine/threonine-protein kinase DCLK3 (DCLK3, Homo sapiens, UniProt Q9C098) | 96 |
| 1-phosphatidylinositol 3-phosphate 5-kinase (PIKFYVE, Homo sapiens, UniProt Q9Y2I7) | 68 |
| Cytoplasmic tyrosine-protein kinase BMX (BMX, Homo sapiens, UniProt P51813) | 93 |
| Tyrosine-protein kinase ABL1, non-phosphorylated (ABL1, Homo sapiens, UniProt P00519, H396P) | 80 |
| SNF-related serine/threonine-protein kinase (SNRK, Homo sapiens, UniProt Q9NRH2) | 89 |
| Hepatocyte growth factor receptor (MET, Homo sapiens, UniProt P08581) | 100 |
| RAF proto-oncogene serine/threonine-protein kinase (RAF1, Homo sapiens, UniProt P04049) | 100 |
| Epithelial discoidin domain-containing receptor 1 (DDR1, Homo sapiens, UniProt Q08345) | 90 |
| Citron Rho-interacting kinase (CIT, Homo sapiens, UniProt O14578) | 84 |
| Mitogen-activated protein kinase kinase kinase kinase 5 (MAP4K5, Homo sapiens, UniProt Q9Y4K4) | 86 |
| Protein kinase C delta type (PRKCD, Homo sapiens, UniProt Q05655) | 98 |
| Receptor-interacting serine/threonine-protein kinase 1 (RIPK1, Homo sapiens, UniProt Q13546) | 82 |
| Serine/threonine-protein kinase Sgk3 (SGK3, Homo sapiens, UniProt Q96BR1) | 76 |
| SRSF protein kinase 2 (SRPK2, Homo sapiens, UniProt P78362) | 100 |
| Ephrin type-B receptor 1 (EPHB1, Homo sapiens, UniProt P54762) | 100 |
| Tyrosine-protein kinase Srms (SRMS, Homo sapiens, UniProt Q9H3Y6) | 93 |
| Serine/threonine-protein kinase NLK (NLK, Homo sapiens, UniProt Q9UBE8) | 95 |
| Receptor tyrosine-protein kinase erbB-3 (ERBB3, Homo sapiens, UniProt P21860) | 95 |
| Epidermal growth factor receptor (EGFR, Homo sapiens, UniProt P00533, del752-759) | 100 |
| Serine/threonine-protein kinase PLK2 (PLK2, Homo sapiens, UniProt Q9NYY3) | 56 |

Set 3
Target: Max-binding protein MNT, bHLH-zipper, MAX partner unstated (MNT, Homo sapiens, UniProt Q99583, residues 220-300)
Technique: protein-binding microarray
Molecule type: double-stranded DNA, one strand shown
Medium: in vitro
Concentration: not given
Notes: k-mer, scored over probes, only values ≥0.25
Direction: higher = stronger binding
Target sequence (chain): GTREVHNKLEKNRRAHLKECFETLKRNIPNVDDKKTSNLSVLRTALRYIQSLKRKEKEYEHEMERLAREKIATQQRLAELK
| Strand | E-score |
| --- | --- |
| CACGCGAA | 0.366 |
| CGTGTTCC | 0.388 |
| ACCACCCC | 0.317 |
| AGGGCGGG | 0.312 |
| ATCATGCG | 0.335 |
| CGTGGTCA | 0.36 |
| ATGTGAGG | 0.256 |
| AAACGTGG | 0.426 |

Set 4
Host: mouse
Medium: microsomes or S9
Concentration: 2 µM
Time: 0.5 h
| Structure (SMILES) | remaining compound [%] |
| --- | --- |
| Cc1cc(NNS(=O)(=O)c2cccs2)n2ncnc2n1 | > 100 |
| Cc1nn(C(=O)c2cccnc2)c(C)c1Cc1c(F)cccc1Cl | < 1 |
| c1ccc(-c2csc(Oc3ccncc3)n2)cc1 | 50.9 |

Other studies, line by line
| SMILES | cell line | concentration | time | measurement | result |
| --- | --- | --- | --- | --- | --- |
| CCN1CC(CCN2CCOCC2)C(c2ccccc2)(c2ccccc2)C1=O (stereo not shown) | A-375 | 100 µM | 18 h | viability | 87.6% |

Some of these lines once more (set 4):
| Structure (SMILES) | remaining compound [%] |
| --- | --- |
| Cc1cc(NNS(=O)(=O)c2cccs2)n2ncnc2n1 | > 100 |
| c1ccc(-c2csc(Oc3ccncc3)n2)cc1 | 50.9 |
| Cc1nn(C(=O)c2cccnc2)c(C)c1Cc1c(F)cccc1Cl | < 1 |
